Published values pooled from the literature.
Each numbered part is a random draw from the data of one study; scales do not carry over between parts. Positions count from the first letter of the parent shown.

Block 1
Target: ATF2, bZIP domain (human)
Technique: DHFR protein complementation
Sample: yeast
Setting: single substitutions, most at no-binding floor
Baseline: wild-type JUN-FOS pair
Direction: higher = stronger binding
Endpoint: binding fitness
Starting sequence: JUN, bZIP domain (human); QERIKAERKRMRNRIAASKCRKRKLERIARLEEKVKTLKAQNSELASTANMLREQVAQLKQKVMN; partner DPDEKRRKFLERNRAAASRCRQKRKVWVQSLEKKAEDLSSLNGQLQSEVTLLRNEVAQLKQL
M51F: -1.34 natural log
K39W: -1.54 natural log
A29E: -1.27 natural log
K36A: -1.17 natural log
T37P: -1.52 natural log
E33F: -1.49 natural log
V56E: -1.5 natural log
L38P: -1.49 natural log
K39F: -1.45 natural log
A40F: -1.42 natural log
L45A: -1.5 natural log
L52Q: -1.48 natural log
L31V: -1.48 natural log
K36W: -1.34 natural log
T37G: -1.35 natural log
E32V: -1.4 natural log
N42A: -1.48 natural log
R53A: -1.25 natural log

Block 2
Target: CCNB3, cyclin fold, Cln2 fusion (human)
Technique: yeast growth competition, sequencing
Sample: yeast
Setting: weak parent motif
Baseline: not given
Direction: higher = stronger binding
Endpoint: normalised enrichment score
Starting sequence: RBL1 docking peptide (human); GSAKRRLFGEDPP; partner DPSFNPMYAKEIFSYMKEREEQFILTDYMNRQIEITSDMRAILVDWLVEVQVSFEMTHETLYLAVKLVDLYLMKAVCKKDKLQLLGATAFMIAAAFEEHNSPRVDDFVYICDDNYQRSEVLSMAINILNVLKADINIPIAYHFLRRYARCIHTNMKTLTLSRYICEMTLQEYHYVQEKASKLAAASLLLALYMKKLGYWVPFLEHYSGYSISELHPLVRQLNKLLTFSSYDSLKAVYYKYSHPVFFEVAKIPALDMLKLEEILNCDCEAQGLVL
GSAKRRLFGEAPP [D11A]: 0.616
GSAKYRLFGEDPP [R5Y]: 0.653
GSMKRRLFGEDPP [A3M]: 0.053
GSAKRRLHGEDPP [F8H]: -0.0292
GSAKRRLFGVDPP [E10V]: 0.122
GSAKRRLFDEDPP [G9D]: 1.01
GSAARRLFGEDPP [K4A]: 0.363
GRAKRRLFGEDPP [S2R]: 0.514
VSAKRRLFGEDPP [G1V]: 1.29
GSAKRRLFGEGPP [D11G]: 0.548
GSAKRRLFGEFPP [D11F]: 0.28
GSAKRRLFGEDPL [P13L]: 0.864
GSAKCRLFGEDPP [R5C]: 0.147
GSAKRRLFGADPP [E10A]: 0.43
GSAKRRLFHEDPP [G9H]: 0.933
GSAKRRVFGEDPP [L7V]: 0.337
GSAHRRLFGEDPP [K4H]: 0.0655
GSAKRRKFGEDPP [L7K]: 0.096
GSAKRRLFGECPP [D11C]: 0.656
GSAKRRLFGEDSP [P12S]: 0.927
GSAKRRLFGEDPQ [P13Q]: 0.377
GTAKRRLFGEDPP [S2T]: 0.557
GSAKRRCFGEDPP [L7C]: -0.0572
GSAKRRLFGEDNP [P12N]: 0.887
GSAKRRLFGPDPP [E10P]: 0.704

Block 3
Target: ABI1, truncated, D143A, DHFR fusion (Arabidopsis thaliana)
Technique: DHFR PCA, deep sequencing
Sample: yeast
Setting: methotrexate growth selection, single substitutions
With: (+)-ABA 4.8 µM
Baseline: wild-type fitted maximum
Direction: higher = stronger binding
Endpoint: relative binding score
Starting sequence: PYL1, truncated, DHFR fusion (Arabidopsis thaliana); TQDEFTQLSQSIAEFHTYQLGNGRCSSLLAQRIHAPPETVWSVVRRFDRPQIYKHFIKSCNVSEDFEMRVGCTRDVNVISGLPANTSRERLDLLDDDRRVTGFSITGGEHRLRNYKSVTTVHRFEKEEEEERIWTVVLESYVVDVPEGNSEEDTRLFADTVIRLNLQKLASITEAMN
R163L: 3.34%
W134M: 86.5%
L20T: 80.6%
A35H: -19%
V62Q: -6.55%
A35S: 46.4%
R113S: 66%
I12N: -13.3%
L164R: 59.8%
R45G: -5.5%
E129K: 72.3%
L29N: 45.8%
S117L: -6.72%
E89L: -2.16%
D159W: 6.08%
V143E: 3.42%
G81P: 21.8%

Block 4
Target: OGT, full length, His-tagged (human)
Technique: phage display, sequencing
Sample: in vitro
Concentration: 1 µg OGT
Setting: single substitutions, 15-mer displayed peptide, unchanged parent 16.7
Baseline: input library
Direction: higher = stronger binding
Endpoint: fold enrichment
Starting sequence: peptide; NSEYMPQYQIIFAHQ
NQEYMPQYQIIFAHQ [S2Q]: 16.5 fold
NSEYDPQYQIIFAHQ [M5D]: 2.79 fold
NSEYMPQYQIQFAHQ [I11Q]: 18.6 fold
NSEYMPQPQIIFAHQ [Y8P]: 0.698 fold
NSEYMPQYQIIFAAQ [H14A]: 14.6 fold
NSEAMPQYQIIFAHQ [Y4A]: 0.764 fold
NSEYMPQYQIIFAHE [Q15E]: 18.5 fold
NSEYMPQYWIIFAHQ [Q9W]: 2.08 fold
NSEQMPQYQIIFAHQ [Y4Q]: 0.991 fold
NSEYMPQYQIIFIHQ [A13I]: 11.5 fold
NSEYMPQYQIYFAHQ [I11Y]: 11.7 fold
NSEYMPQYQIIFAWQ [H14W]: 7.66 fold
NSEYMPAYQIIFAHQ [Q7A]: 6.19 fold
NSEYMGQYQIIFAHQ [P6G]: 1.14 fold
NSEYMPQYQIITAHQ [F12T]: 7.43 fold
NSEYQPQYQIIFAHQ [M5Q]: 4.69 fold
NSEKMPQYQIIFAHQ [Y4K]: 1.07 fold
NSQYMPQYQIIFAHQ [E3Q]: 18.2 fold
NSEYMPQVQIIFAHQ [Y8V]: 3.24 fold
NSEYVPQYQIIFAHQ [M5V]: 4.87 fold
NSEYMPQYQIIFATQ [H14T]: 15.5 fold

Repeated from above (block 3):
V62Q: -6.55%
L164R: 59.8%
A35H: -19%
L29N: 45.8%
W134M: 86.5%
G81P: 21.8%
R113S: 66%
